Assay results pooled from the literature.
Lines come from different studies, so protocols differ. ± gives the spread as reported.

| SMILES | test | system | conditions | scale | quantity | result |
| --- | --- | --- | --- | --- | --- | --- |
| Cc1ccc(C(=O)NC2CC2)cc1-n1ncc(C(=O)c2cccc(C#N)c2)c1N | – | healthy volunteers | oral, 75 mg single dose, mean observed | – | AUC | 41400 ng·h/mL |
| C#C[C@]1(O)CC[C@H]2[C@@H]3CCC4=CC(=O)CC[C@@H]4[C@H]3CC[C@@]21C | radioimmunoassay | HIV-infected women, no protease inhibitor, serum | oral, 0.35 mg daily, steady state, interval 0-72 h, geometric mean | – | AUC | 25.2 ng·h/mL |
| COc1c(O)cc(C(=O)O)cc1O | – | broiler chickens, serum | oral, in feed, 2000 mg/kg feed, wheat diet, no tannins | – | AUC | 0.46 ± 0.11 µM·h |
| COC(=O)N[C@H](C(=O)N1CCC[C@H]1c1ncc(-c2cc(F)c3c(c2)O[C@@H](c2cnc(C4CC4)s2)n2c-3cc3cc(-c4cnc([C@@H]5CCCN5C(=O)[C@@H](NC(=O)OC)C(C)C)[nH]4)ccc32)[nH]1)C(C)C | – | healthy adults, plasma | oral, 180 mg once daily, day 6, fasted, alone, steady state | – | AUC | 3770 ng·h/mL |
| O=C(O)c1cc(O)c(O)c(O)c1 | – | broiler chickens, serum | oral, in feed, 2000 mg/kg feed, corn diet, no tannins | – | AUC | 1.32 ± 0.43 µM·h |
| CC(C)(C)c1cc(C(C)(C)C)c(NC(=O)c2c[nH]c3ccccc3c2=O)cc1O | – | pregnant women with cystic fibrosis, plasma | dose not given | relative to: non-pregnant individuals | AUC reduction | 15.4% |
| O=c1[nH]cc(F)c(=O)[nH]1 | – | patients | 2000 mg/m² over 48 h | – | AUC | 20000 to 30000 ng·h/mL |
| N#CCNC(=O)c1ccc(-c2ccnc(Nc3ccc(N4CCOCC4=O)cc3)n2)cc1 | – | healthy volunteers, plasma | dose not given, together with: rifampin multiple-dose | relative to: with single-dose rifampin | AUC increase | 15% |
| Cc1nn(C)cc1S(=O)(=O)NC(=O)c1ccc(-n2ccc(OCC(C)(C)C(F)(F)F)n2)nc1N1C[C@@H](C)CC1(C)C | – | pregnant women with cystic fibrosis, plasma | dose not given | relative to: non-pregnant individuals | AUC reduction | 62% |

Repeated from above:
| SMILES | test | system | conditions | scale | quantity | result |
| --- | --- | --- | --- | --- | --- | --- |
| COC(=O)N[C@H](C(=O)N1CCC[C@H]1c1ncc(-c2cc(F)c3c(c2)O[C@@H](c2cnc(C4CC4)s2)n2c-3cc3cc(-c4cnc([C@@H]5CCCN5C(=O)[C@@H](NC(=O)OC)C(C)C)[nH]4)ccc32)[nH]1)C(C)C | – | healthy adults, plasma | oral, 180 mg once daily, day 6, fasted, alone, steady state | – | AUC | 3770 ng·h/mL |
